Assay results of several laboratories.
Each numbered part is a random draw from the data of one study; scales do not carry over between parts.
Sequence of UniProt O15075 (whole entry, looked up): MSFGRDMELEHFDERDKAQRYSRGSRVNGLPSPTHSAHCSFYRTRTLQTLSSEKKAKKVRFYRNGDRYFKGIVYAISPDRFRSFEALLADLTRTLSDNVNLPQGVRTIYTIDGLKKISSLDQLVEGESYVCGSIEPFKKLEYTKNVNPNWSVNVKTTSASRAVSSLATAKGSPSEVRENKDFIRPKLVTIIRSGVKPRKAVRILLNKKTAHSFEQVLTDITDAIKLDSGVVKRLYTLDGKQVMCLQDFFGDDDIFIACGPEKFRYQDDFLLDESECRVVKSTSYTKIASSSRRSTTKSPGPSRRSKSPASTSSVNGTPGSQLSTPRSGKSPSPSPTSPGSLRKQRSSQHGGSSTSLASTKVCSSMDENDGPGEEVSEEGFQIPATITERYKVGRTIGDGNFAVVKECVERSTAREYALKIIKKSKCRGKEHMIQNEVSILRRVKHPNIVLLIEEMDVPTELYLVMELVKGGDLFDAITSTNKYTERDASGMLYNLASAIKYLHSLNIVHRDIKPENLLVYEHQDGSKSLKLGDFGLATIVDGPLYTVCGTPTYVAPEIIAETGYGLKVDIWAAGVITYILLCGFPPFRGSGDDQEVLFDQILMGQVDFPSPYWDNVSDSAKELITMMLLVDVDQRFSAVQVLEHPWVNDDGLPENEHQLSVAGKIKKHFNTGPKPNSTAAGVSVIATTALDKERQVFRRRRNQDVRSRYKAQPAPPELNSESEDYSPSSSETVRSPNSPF
Sequence of UniProt Q8IY84 (whole entry, looked up): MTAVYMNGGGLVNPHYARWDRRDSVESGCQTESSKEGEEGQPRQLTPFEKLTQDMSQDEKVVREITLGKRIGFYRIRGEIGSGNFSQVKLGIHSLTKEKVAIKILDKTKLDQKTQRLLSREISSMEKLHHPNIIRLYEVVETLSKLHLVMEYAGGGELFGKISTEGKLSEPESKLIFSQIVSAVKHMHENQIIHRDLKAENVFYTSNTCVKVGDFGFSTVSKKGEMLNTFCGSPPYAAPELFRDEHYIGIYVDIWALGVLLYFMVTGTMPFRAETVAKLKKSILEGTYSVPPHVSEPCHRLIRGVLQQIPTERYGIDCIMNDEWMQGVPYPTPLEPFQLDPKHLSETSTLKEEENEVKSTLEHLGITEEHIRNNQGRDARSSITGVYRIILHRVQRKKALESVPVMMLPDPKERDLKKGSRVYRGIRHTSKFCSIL
Sequence of UniProt P51817 (whole entry, looked up): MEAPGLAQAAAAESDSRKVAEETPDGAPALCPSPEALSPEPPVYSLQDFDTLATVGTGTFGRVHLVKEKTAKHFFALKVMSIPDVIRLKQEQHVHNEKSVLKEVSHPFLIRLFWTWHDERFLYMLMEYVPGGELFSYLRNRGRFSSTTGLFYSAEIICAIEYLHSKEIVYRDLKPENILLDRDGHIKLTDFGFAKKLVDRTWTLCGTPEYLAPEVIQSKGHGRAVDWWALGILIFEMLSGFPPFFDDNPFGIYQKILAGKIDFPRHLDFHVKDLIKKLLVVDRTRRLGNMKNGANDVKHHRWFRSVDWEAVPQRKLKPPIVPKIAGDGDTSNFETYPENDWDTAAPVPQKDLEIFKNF
Sequence of UniProt Q13043 (whole entry, looked up): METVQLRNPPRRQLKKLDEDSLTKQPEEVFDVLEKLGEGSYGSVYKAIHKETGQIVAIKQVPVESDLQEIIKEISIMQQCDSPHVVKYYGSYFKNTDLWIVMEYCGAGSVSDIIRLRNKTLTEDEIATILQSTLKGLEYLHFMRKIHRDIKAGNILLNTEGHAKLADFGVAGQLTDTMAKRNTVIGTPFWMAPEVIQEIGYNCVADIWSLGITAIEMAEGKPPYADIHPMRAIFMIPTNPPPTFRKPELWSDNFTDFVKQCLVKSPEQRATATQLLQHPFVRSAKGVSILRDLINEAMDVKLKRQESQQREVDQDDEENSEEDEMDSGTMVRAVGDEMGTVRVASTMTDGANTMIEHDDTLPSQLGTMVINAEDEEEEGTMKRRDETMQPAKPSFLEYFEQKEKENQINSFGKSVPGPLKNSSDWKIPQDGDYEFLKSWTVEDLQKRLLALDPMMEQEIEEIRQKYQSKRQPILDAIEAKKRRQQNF
Sequence of UniProt P49759 (whole entry, looked up): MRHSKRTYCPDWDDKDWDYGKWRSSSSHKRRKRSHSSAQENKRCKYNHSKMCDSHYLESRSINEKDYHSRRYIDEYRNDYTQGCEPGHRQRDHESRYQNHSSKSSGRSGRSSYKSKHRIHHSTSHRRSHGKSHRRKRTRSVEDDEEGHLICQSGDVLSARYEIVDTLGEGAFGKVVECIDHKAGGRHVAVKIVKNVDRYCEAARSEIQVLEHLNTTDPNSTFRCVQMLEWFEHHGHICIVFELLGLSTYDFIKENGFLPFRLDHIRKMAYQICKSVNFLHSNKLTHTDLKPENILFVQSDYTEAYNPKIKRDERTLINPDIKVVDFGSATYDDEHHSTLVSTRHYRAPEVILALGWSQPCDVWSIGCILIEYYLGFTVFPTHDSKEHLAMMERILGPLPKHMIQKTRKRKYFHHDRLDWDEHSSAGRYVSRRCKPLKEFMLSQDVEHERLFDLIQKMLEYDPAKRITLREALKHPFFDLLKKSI

Sample 1
Target: NUAK family SNF1-like kinase 1 (NUAK1, Homo sapiens, UniProt O60285)
Sequence of UniProt O60285 (whole entry, looked up): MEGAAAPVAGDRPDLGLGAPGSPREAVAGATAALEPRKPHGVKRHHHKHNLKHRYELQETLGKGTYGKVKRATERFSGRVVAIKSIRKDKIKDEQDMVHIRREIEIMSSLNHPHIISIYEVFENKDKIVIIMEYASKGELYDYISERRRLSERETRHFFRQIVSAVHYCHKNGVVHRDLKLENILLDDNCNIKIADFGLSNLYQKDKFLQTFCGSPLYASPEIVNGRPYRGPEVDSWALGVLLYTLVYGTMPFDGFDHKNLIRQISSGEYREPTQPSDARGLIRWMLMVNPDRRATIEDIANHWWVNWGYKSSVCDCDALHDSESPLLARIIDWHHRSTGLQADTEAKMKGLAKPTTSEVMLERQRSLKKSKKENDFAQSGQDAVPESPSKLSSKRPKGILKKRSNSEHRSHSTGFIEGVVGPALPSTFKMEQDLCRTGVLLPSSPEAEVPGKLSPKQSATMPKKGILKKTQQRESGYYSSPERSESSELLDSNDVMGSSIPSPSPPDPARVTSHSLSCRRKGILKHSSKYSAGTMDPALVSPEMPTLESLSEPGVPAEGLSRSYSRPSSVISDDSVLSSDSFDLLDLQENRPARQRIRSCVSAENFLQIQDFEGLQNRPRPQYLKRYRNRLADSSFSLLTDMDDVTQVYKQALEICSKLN
Read-out: enzyme activity
Mode: inhibitor
Tested at: 0.5 µM
Reference: control
Compound | remaining activity
CCC(=O)Nc1ccc2ncnc(Nc3cccc(Br)c3)c2c1 | 87.3%
Cc1ccc(NC(=O)c2ccc(CN3CCN(C)CC3)cc2)cc1Nc1nccc(-c2cccnc2)n1 | 98.8%
Cc1nc(Nc2ncc(C(=O)Nc3c(C)cccc3Cl)s2)cc(N2CCN(CCO)CC2)n1 | 110%
Cn1cc(/C=C2\C(=O)Nc3ccc(S(N)(=O)=O)cc32)c2ccccc21 | 5.88%
COc1ccc(-c2cnc3c(-c4ccsc4)cnn3c2)cc1 | 77.9%

Sample 2
Structure (SMILES): O=c1nc(-c2ccccn2)sc2ccccc12
Method: competition with immobilised ligand
Tested at: 1 µM
target | assay | remaining binding [%]
Tyrosine-protein kinase ABL1, non-phosphorylated (ABL1, Homo sapiens, UniProt P00519, Q252H) | binding | 96
STK4 (Homo sapiens, UniProt Q13043) | binding | 75
MAPK6 (Homo sapiens, UniProt Q16659) | binding | 73
DCLK1 (Homo sapiens, UniProt O15075) | binding | 90
Myosin-IIIa (MYO3A, Homo sapiens, UniProt Q8NEV4) | binding | 92
NIM1K (Homo sapiens, UniProt Q8IY84) | binding | 100
KDR (Homo sapiens, UniProt P35968) | cell-free assay | 100
MAP3K1 (Homo sapiens, UniProt Q13233) | binding | 65
PRKX (Homo sapiens, UniProt P51817) | cell-free assay | 100
BMX (Homo sapiens, UniProt P51813) | binding | 98
MINK1 (Homo sapiens, UniProt Q8N4C8) | binding | 83
TNK2 (Homo sapiens, UniProt Q07912) | binding | 100
EPHA1 (Homo sapiens, UniProt P21709) | cell-free assay | 100
ERBB2 (Homo sapiens, UniProt P04626) | binding | 65
CLK1 (Homo sapiens, UniProt P49759) | binding | 99

Sample 3
Species: human
Medium: microsomes or S9
Tested at: 2 µM
Time: 0.5 h
SMILES | remaining compound [%]
CC(C)c1nc(-c2cc3ccccc3nc2O)no1 | 39.7
CCOC(=O)c1ccccc1NS(=O)(=O)CC | 65.4
CCn1ccnc1C(O)c1cc(OC)ccc1OC (stereo not drawn) | 81.5
CCc1cc(CN2OCC(C)(C)C2=O)c(Cl)s1 | 0.588

Sample 4
Cell line: HaCaT
Tested at: 100 µM
Time: 36 h
Structure (SMILES) | viability
CC(=O)OCC(=O)NCCCOc1cccc(CN2CCCCC2)c1 | 78.5%
c1cnc(N2CCN(Cc3ccc4c(c3)OCO4)CC2)nc1 | 83.9%
CC12CC3CC(C)(C1)CC(N)(C3)C2 | 66.5%
O=C(O)c1cccnc1Nc1cccc(C(F)(F)F)c1 | 72.5%
CN(C)C/C=C/C(=O)Nc1cc2c(Nc3ccc(F)c(Cl)c3)ncnc2cc1O[C@H]1CCOC1 | 5.45%

Mixed results
Structure (SMILES) | system | setting | quantity | result
CC(C)n1cnc(-c2ccc(F)cc2)c1-c1ncc(C(=O)Nc2ccc(N3CCN(C)CC3)cc2)[nH]1 | human, idiopathic pulmonary fibrosis | 60 mg once daily, trial, treatment-emergent | patients with ventricular extrasystoles | 0%
